{"data": "Results pooled from the literature"}
{"Structure (SMILES)": "CC1(C)SC2C(NC(=O)C(NC(=O)C3=C(O)C(Cc4ccc([N+](=O)[O-])cc4)NC3=O)c3ccccc3)C(=O)N2C1C(=O)O (stereo not shown)", "organism": "Escherichia coli", "assay": "broth microdilution", "system": "ATCC 25922 wild type", "setting": "no clavulanic acid", "MIC": "25 µg/mL"}
{"Structure (SMILES)": "N=C(N)c1ccc(OCc2cccc(COc3ccc(C(=N)N)cc3)c2)cc1", "organism": "Escherichia coli", "system": "BW25113", "setting": "compound alone, rifampicin checkerboard", "MIC": "> 200 µg/mL"}
{"Structure (SMILES)": "CC1(C)S[C@@H]2[C@H](NC(=O)[C@H](N)c3ccccc3)C(=O)N2[C@H]1C(=O)O", "organism": "Pseudomonas aeruginosa", "system": "clinical isolate RKI-No_479/15", "MIC": "> 16 µg/mL"}
{"Structure (SMILES)": "N=C(N)c1ccc(OCc2ccc(-c3ccccc3)cc2COc2ccc(C(=N)N)cc2)cc1", "organism": "Escherichia coli", "system": "mcr-1 polymyxin-resistant", "setting": "20 h, compound alone", "MIC": "200 µg/mL"}
{"Structure (SMILES)": "CCCCCCC#Cc1cncc(-c2nnc(SCc3ccc(Cl)cc3)n2C)c1", "organism": "Mycolicibacterium smegmatis", "how to read": "no activity below value", "MIC": "≥ 100 µM"}
{"Structure (SMILES)": "CC(=O)NC[C@H]1CN(c2ccc(N3CCOCC3)c(F)c2)C(=O)O1", "organism": "Lactobacillus gasseri", "system": "ATCC 19992", "MIC": "5.93 µM"}
{"Structure (SMILES)": "CC(C)(C)OCC1NC(=O)C(C(=O)NC(C(=O)NC2C(=O)N3C2SC(C)(C)C3C(=O)O)c2ccccc2)=C1O (stereo not shown)", "organism": "Escherichia coli", "assay": "broth microdilution", "system": "BW25113 wild type", "setting": "18 h", "MIC": "25 µg/mL"}
{"Structure (SMILES)": "CC1(C)S[C@@H]2[C@H](NC(=O)[C@H](N)c3ccc(O)cc3)C(=O)N2[C@H]1C(=O)O", "organism": "Serratia marcescens", "assay": "broth microdilution", "system": "MTCC 4301", "MIC": "8 µg/mL"}
{"Structure (SMILES)": "N=C(N)c1cccc(OCc2ccc(COc3cccc(C(=N)N)c3)cc2)c1", "organism": "Escherichia coli", "system": "mcr-3 polymyxin-resistant", "setting": "compound alone", "MIC": "> 200 µg/mL"}
{"Structure (SMILES)": "CCCCCCCCCC(=O)N[C@@H](Cc1c[nH]c2ccccc12)C(=O)N[C@H](CC(N)=O)C(=O)N[C@@H](CC(=O)O)C(=O)N[C@@H]1C(=O)NCC(=O)N[C@@H](CCCN)C(=O)N[C@@H](CC(=O)O)C(=O)N[C@H](C)C(=O)N[C@@H](CC(=O)O)C(=O)NCC(=O)N[C@H](CO)C(=O)N[C@@H]([C@H](C)CC(=O)O)C(=O)N[C@@H](CC(=O)c2ccccc2N)C(=O)O[C@@H]1C", "organism": "Staphylococcus aureus", "assay": "broth microdilution", "system": "MRSA USA300, Mueller-Hinton broth, Mg2+ 10 mg/L", "setting": "16 h, 37 °C, together with: Ca2+ 2.5 mM", "MIC": "0.25 µg/mL"}
{"Structure (SMILES)": "C#CCOC(=O)ON=C1C=CC(=C(C#N)c2ccccc2)C=C1", "organism": "Clavispora lusitaniae", "assay": "broth dilution", "system": "ATCC 34449", "setting": "48 h, 37 °C", "MIC": "64 µg/mL"}
{"Structure (SMILES)": "CC(C)C[C@@H]1NC(=O)[C@@H](Cc2ccccc2)NC(=O)[C@H](CCN)NC(=O)[C@@H](NC(=O)[C@H](CCN)NC(=O)[C@@H](N)[C@@H](C)O)CCNC(=O)[C@H]([C@@H](C)O)NC(=O)[C@H](CCN)NC(=O)[C@H](CCN)NC1=O", "organism": "Escherichia coli", "assay": "checkerboard", "system": "552100", "setting": "compound alone", "MIC": "> 200 µg/mL"}
{"Structure (SMILES)": "C#CCON=C1C=CC(=C(C#N)c2ccccc2)C=C1", "organism": "Clavispora lusitaniae", "assay": "broth dilution", "system": "ATCC 34449", "setting": "48 h, 37 °C", "MIC": "64 µg/mL"}
{"Structure (SMILES)": "CCCCCCCCCC(=O)N[C@@H](Cc1c[nH]c2ccccc12)C(=O)N[C@H](CC(N)=O)C(=O)N[C@@H](CC(=O)O)C(=O)N[C@@H]1C(=O)NCC(=O)N[C@@H](CCCN)C(=O)N[C@@H](CC(=O)O)C(=O)N[C@H](C)C(=O)N[C@@H](CC(=O)O)C(=O)NCC(=O)N[C@H](CO)C(=O)N[C@@H]([C@H](C)CC(=O)O)C(=O)N[C@@H](CC(=O)c2ccccc2N)C(=O)O[C@@H]1C", "organism": "Staphylococcus aureus", "system": "SH1000", "setting": "together with: N-acetylsphingosine, molar ratio 2", "MIC": "1 µg/mL"}
{"Structure (SMILES)": "COc1cc(C=O)ccc1OC1=C(Cl)C(=O)c2ccccc2C1=O", "organism": "Serratia marcescens", "assay": "broth microdilution", "system": "MTCC 4301", "MIC": "10 µg/mL"}
{"Structure (SMILES)": "CCON=C1C=CC(=C(C#N)c2ccccc2)C=C1", "organism": "Clavispora lusitaniae", "assay": "broth dilution", "system": "ATCC 34449", "setting": "48 h, 37 °C", "MIC": "256 µg/mL"}
{"Structure (SMILES)": "C[C@@H](c1ncncc1F)[C@](O)(Cn1cncn1)c1ccc(F)cc1F", "organism": "Blastomyces dermatitidis", "system": "BD-3", "MIC": "≤ 0.03 µg/mL"}
{"Structure (SMILES)": "N=C(N)c1ccc(OCc2ccccc2COc2ccc(C(=N)N)cc2)cc1", "organism": "Escherichia coli", "system": "BW25113", "setting": "compound alone, novobiocin checkerboard", "MIC": "> 200 µg/mL"}
{"Structure (SMILES)": "C[C@H]1[C@H](NC(=O)/C(=N\\OC(C)(C)C(=O)O)c2csc(N)n2)C(=O)N1S(=O)(=O)O", "organism": "Serratia marcescens", "assay": "agar dilution", "system": "ATCC 21074 susceptible", "MIC": "0.125 µg/mL"}
{"Structure (SMILES)": "CC1(C)SC2C(NC(=O)C(NC(=O)C3=C(O)C(Cc4ccc(F)cc4)NC3=O)c3ccccc3)C(=O)N2C1C(=O)O (stereo not shown)", "organism": "Escherichia coli", "assay": "broth microdilution", "system": "ATCC 25922 wild type", "setting": "together with: clavulanic acid 6 µg/mL", "MIC": "12.5 µg/mL"}
{"Structure (SMILES)": "N#CC(=C1C=CC(=NOC(=O)c2ccccc2)C=C1)c1ccccc1", "organism": "Clavispora lusitaniae", "assay": "broth dilution", "system": "ATCC 34449", "setting": "48 h, 37 °C", "MIC": "128 µg/mL"}
{"Structure (SMILES)": "CNC(C)C1CCC(N)C(OC2C(N)CC(N)C(OC3OCC(C)(O)C(NC)C3O)C2O)O1 (stereo not shown)", "organism": "Pseudomonas aeruginosa", "system": "clinical isolate RKI-No_484/15", "MIC": "> 8 µg/mL"}
{"note": "Excerpt of the above:"}
{"Structure (SMILES)": "CC(C)C[C@@H]1NC(=O)[C@@H](Cc2ccccc2)NC(=O)[C@H](CCN)NC(=O)[C@@H](NC(=O)[C@H](CCN)NC(=O)[C@@H](N)[C@@H](C)O)CCNC(=O)[C@H]([C@@H](C)O)NC(=O)[C@H](CCN)NC(=O)[C@H](CCN)NC1=O", "organism": "Escherichia coli", "assay": "checkerboard", "system": "552100", "setting": "compound alone", "MIC": "> 200 µg/mL"}
{"Structure (SMILES)": "C#CCON=C1C=CC(=C(C#N)c2ccccc2)C=C1", "organism": "Clavispora lusitaniae", "assay": "broth dilution", "system": "ATCC 34449", "setting": "48 h, 37 °C", "MIC": "64 µg/mL"}
